Measurements collected from several papers.
Each numbered part is a random draw from the data of one study; scales do not carry over between parts. Substitutions count along the parent as printed.

Set 1 — method: RNA Bind-n-Seq; form: RNA; sample: in vitro; concentration: 365 nM; relative to: no-protein control; reading: higher = stronger binding
Target: RNA binding protein fox-1 homolog 2, RRM domain, GST-SBP tag (RBFOX2, Homo sapiens, UniProt O43251-10, residues 100-194)
Notes: natural RNA segment, single round, ends assumed
Constant ends, left off below: GGGAGUUCUACAGUCCGACGAUC … UGGAAUUCUCGGGUGCCAA
Target sequence (chain): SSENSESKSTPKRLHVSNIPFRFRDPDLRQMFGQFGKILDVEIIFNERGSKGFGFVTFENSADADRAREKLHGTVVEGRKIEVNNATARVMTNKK
Sequence | RBNS enrichment (R)
GCGAGUUCUCGGUUUUGCCGGUUUCUUUAGUUCUUUACUGUCACUGUCAUGUAAUCAGCUAAUUCUCUGUGGAUGUUGCUGUAAAGUAUGCAUGUUCCUUUCAUGUGUAU | 0.39
UGGUUAUCCCAGAAACUUGUCUUCUAAAAGGGAGGACUCCAGGCCAUCAAUAAAGAUGUCCAGGCAGUGAGCGUACUUUUUACACCCUGUAGAAUUGUGGGCUGUAGCGU | 0.391
CAGCCUGUCGUGUCUCUUUGGACAGACGGACCAUCAGUGUAGAUAAUCAGCAUGCUUGUGCAUUACGUGGAGGUUGGAGGUGUCAUCUUUGUUGGGAUGACUGAUUGGGG | 23.1
UAACUAAGUAGCAUUUAAAAUCAAGAUAGAGCAUUCCUUCUUGUAUCAGUGGGGCAGUGUUACCAUAAACACGGUGUAUAUGUUGUUAAACCCUAUGAAGAGUAACAGUG | 0.566
GUUUAUGCAACUCUAUCUUAAGAACUGCCCAGCCUCAGCUGAAAACCCGAAUCUGAGAAGGAAUUGCGUCAUGUAAGGGAAGCUGGAAUUAAGGGAGCUGAGCCAGUCAU | 0.689
AGUCACACAACCAAAGGUAGACUCAGACCAGUUCAGUGCUCCUGGUGGCCAUAGGGACCAGAAAGCAGCUUAGGAAAUCUAUCCAUUGGCCCUUUUAGAGUCUCUGUGUG | 0.386
GGAGCUGCUGUCAGUGCUGAGGGCGCCUGAGUGAACAGCUGCUGGGCUCAGCCCUCUAGAGCGCCUGUGGAGGCAGUUUCCAGGCAGUAAUGGAGUCCCCACCACCGCUU | 0.554
UAUAACUAGGAUUUCAUUUUGUGUGUAUAGCUUAUGUAAUAAAUUUUAAAGGUGAAAACUCUCUUAAUUUGUUUCUAUUUCUUAAGUAUUUUAAAACAUAGCAAAGAUAA | 0.778
UUGACCUCUGUCUUGACAGUGCCCUCCACAACUGUGUCCUGUGUGGGAGACUCACCCCACACGCCCUCCCCAGGGCACGUGCUGGUGUUUCCUCACGCUGGUUUCUCUGG | 0.171
CUGCACUUGCUGGGUUCCUCCCCUCUGCCUCCUUUCUUGAACUCAGAGGUAGGGACUAAGCACCAGGUGCCAGCAGGCCCUCCUGCUGUGGCCACUCCAGAGUGCUCCGU | 0.198
UCAAAUCCGAAGUGCUCGAGUGCUUAGAAACCCCCUCUGGUGCUUGGUUGAACAAGGGAAUCACAAGAAAACGAAAAUGCAAAAACUGAACUUCGGGGGUCGUUCUGUGC | 0.893
ACCAGGGGGUUAAUCUUGGCUCAGUUUCCUAAAAAGCAUUGAUUAAUUUAACUGGCUUUUAAAUAUCCCCUUCCGCUGAUAUUUGUUGUCAGCUGCCUACAGUUUAAUAU | 1.07

Set 2 — target: CCND2, cyclin fold, Cln2 fusion (human); method: yeast growth competition, sequencing; sample: yeast; notes: weak parent motif; relative to: not given; reading: higher = stronger binding
Starting sequence: PLK5 docking peptide (human); IFRKVGQRLLTQC; partner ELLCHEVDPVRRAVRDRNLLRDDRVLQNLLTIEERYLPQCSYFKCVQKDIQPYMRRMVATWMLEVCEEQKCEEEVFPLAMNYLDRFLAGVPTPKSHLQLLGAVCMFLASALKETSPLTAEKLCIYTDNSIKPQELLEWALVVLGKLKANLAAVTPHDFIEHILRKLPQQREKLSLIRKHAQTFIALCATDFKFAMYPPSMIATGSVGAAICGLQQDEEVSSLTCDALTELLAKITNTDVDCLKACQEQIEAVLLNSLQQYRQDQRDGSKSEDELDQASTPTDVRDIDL
Substitution | normalised enrichment score
G6A | -0.376
F2A | -0.292
T11A | 0.0666
C13A | -0.521
I1A | -0.202
V5A | -0.0187
R3A | -0.245

Set 3 — method: RNA Bind-n-Seq; form: RNA; sample: in vitro; concentration: 1 µM; notes: whole 134-nt RNA, ends assumed; with: 150 mM KCl; relative to: input library; reading: higher = stronger binding
Target: Ras GTPase-activating protein-binding protein 1, RRM domain (G3BP1, Homo sapiens, UniProt Q13283)
Chain of UniProt Q13283 (whole entry, looked up): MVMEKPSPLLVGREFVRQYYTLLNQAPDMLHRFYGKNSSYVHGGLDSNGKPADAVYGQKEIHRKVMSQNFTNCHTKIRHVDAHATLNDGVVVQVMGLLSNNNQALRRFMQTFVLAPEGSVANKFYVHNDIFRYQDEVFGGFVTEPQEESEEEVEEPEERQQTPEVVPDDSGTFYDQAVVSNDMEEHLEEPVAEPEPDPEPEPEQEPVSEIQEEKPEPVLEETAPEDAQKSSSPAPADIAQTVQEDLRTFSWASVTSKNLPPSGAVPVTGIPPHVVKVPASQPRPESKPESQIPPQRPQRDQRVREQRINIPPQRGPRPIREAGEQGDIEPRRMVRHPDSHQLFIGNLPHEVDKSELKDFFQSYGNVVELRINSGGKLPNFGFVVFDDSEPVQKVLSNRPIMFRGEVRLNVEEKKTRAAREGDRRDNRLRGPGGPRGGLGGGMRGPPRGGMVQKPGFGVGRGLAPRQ
Constant ends, left off below: GGGAGUUCUACAGUCCGACGAUC … UGGAAUUCUCGGGUGUCAAGG
Sequence | log2 enrichment
UAACUUUAGAGGAGGAUCUGAUGGAUAUGGCAGUGGACGUGGAUUUGGGGAUGGCUAUAAUGGGUAUGGAGGGGGACCUGGAGGUGGCAA | -0.527
CACAGACAACACGCACCCACACAGACACAGAGGGAAGGGGUUGAAAUGGGGACAGGGUGCACAGCAGGGCGGGGUAGGACCCCAGCCCCU | -0.139
AAGUCCUGUGCUACACAUCGUAUGUACCGAAUCGGGGAGGGGUUUUUGGGGUGGGGAAAGUAUUAUGUUACGCCGUUCGGAUCUGCACUU | 0.84
UAAGAAGGAAAUUGAGAGGAGAAAAACUGGAAAAGAAAUGUUGGAUUAUAAAAGAAAACAAGAAGAAGAAUUAACAAAAAGAAUGCUGGA | 0.0645
UCCUGUGCUACACAUCGUAUGUACCGAAUCGGGUUUUUUGGGUUUUUUGGGUUUUUUGGAAAGUAUUAUGUUACGCCGUUCGGAUCUGCA | -0.0874
ACCAUGCAGGUGGGCAUCUUUGGGAAGUGGGGCAAGGGGGGGAUAGGGAGGGGGGUAACACUUUGGGAACAGGUGGUCCUAGGUCGUUUC | 0.689
UGUGUGUUAUAUAUUUAUUUUUAAUUGCAGAUGACAGGAUUGGACAUUGAGAAGGACCAGAUUAUUGAGAUGGCCUGUCUGAUAACUGAC | -0.765
UGGCCCUGGUGGCAUGCGGGGAGGAAGAGGUGGCCUCAUGGAUCGUGGUGGUCCCGGUGGAAUGUUCAGAGGUGGCCGUAGUGGAGACAG | 1.8
UGUGGACGACAAUGAGGAGACCAUCAAAAAGCGGCUGGAGACCUAUUACAAGGCCACAGAACCUGUCAUCGCCUUCUAUGAGAAACGUGG | -0.0412
GUCCUGUGCUACACAUCGUAUGUACCGAAUCGGGGUGGGGUUUUUGGGGAAAAAGGGGAAAGUAUUAUGUUACGCCGUUCGGAUCUGCAC | 0.806
ACCAUGCAGGUGGGCAUCUUUGGGAAGUGGGGCAAGGGGGGGAUAGGGAGGGGGGUAACACUUUGGGAACAGGUGGUCCGAGGUCGUUUC | 0.696
UGGGAGGUGGAUUUUGUUUAUUUUUUUAGCUCAUUUCCAGGGGUGGGAAUUUUUUUUUAAUAUGUGUCCUGAAUAAAGUUGUUUUUGAAA | 1.88
UCCUGUGCUACACAUCGUAUGUACCGAAUCGGGAAAAAAAGGGAAAAAAAGGGAAAGGGAAAGUAUUAUGUUACGCCGUUCGGAUCUGCA | 0.0827
UGGCAGGUGGAUUUUGUUUAUUUUUUUAGCUCAUUUCCAGGGGUGGGAAUUUUUUUUUAAUAUGUGUCAUGAAUAAAGUUGUUUUUGAAA | 1.91

Set 4 — method: Sort-seq; measured: YFP reporter; sample: E. coli; notes: PhoQ-PhoP variant library; with: 10 µM Mg2+; relative to: high Mg2+ state; reading: higher = stronger signaling
Molecule: PhoQ, residues 284 288 289 292 302 303 NLMGRA
target | fold induction
PhoP, residues 12 14 15 18 19 NFFVT (Escherichia coli, UniProt P23836) | 15.4
PhoP, residues 12 14 15 18 19 TPWTL (Escherichia coli, UniProt P23836) | 2.13
PhoP, residues 12 14 15 18 19 VGHWL (Escherichia coli, UniProt P23836) | 3.62
PhoP, residues 12 14 15 18 19 LHHYF (Escherichia coli, UniProt P23836) | 7.88

Set 5 — method: aptamer microarray, sandwich; form: DNA with 2'F-ANA; sample: in vitro; concentration: 200 nM; with: Cy3 exosite-II aptamer, 400 nM; reading: higher = stronger binding; sequence: GGTTGGTGTGGTTGG
Target: Prothrombin, mature alpha-thrombin (F2, Homo sapiens, UniProt P00734)
Notes: whole 15-mer aptamer, many near background
Modification | mean fluorescence intensity [a.u.]
2'F-ANA at 1 2 3 5 7 8 9 11 12 13 14 15 | 52.2
2'F-ANA at 2 3 5 7 9 10 11 13 15 | 54.4
2'F-ANA at 1 2 3 5 6 8 10 11 14 | 51.7
2'F-ANA at 1 2 3 4 12 13 15 | 302
2'F-ANA at 2 3 4 6 7 10 12 13 14 15 | 149
2'F-ANA at 1 2 3 4 5 7 9 10 11 14 | 49.1
2'F-ANA at 2 3 4 9 10 12 14 15 | 185
2'F-ANA at 2 3 6 7 9 14 | 352
2'F-ANA at 2 3 4 7 11 14 15 | 335
2'F-ANA at 3 4 5 6 10 11 15 | 53.4
2'F-ANA at 1 7 10 11 13 15 | 51.9
2'F-ANA at 3 4 5 7 8 10 12 13 14 | 49.5
2'F-ANA at 3 4 5 7 11 15 | 85.9
2'F-ANA at 2 3 4 5 6 8 9 10 11 12 13 | 52.5
2'F-ANA at 3 4 5 6 8 9 10 15 | 48.3
2'F-ANA at 1 5 6 9 13 14 | 44.6
2'F-ANA at 3 4 6 8 10 14 15 | 162
2'F-ANA at 2 5 7 8 11 | 67.7
2'F-ANA at 5 6 8 10 11 12 | 48.8

Excerpt of the above (set 5):
Modification | mean fluorescence intensity [a.u.]
2'F-ANA at 3 4 5 7 8 10 12 13 14 | 49.5
2'F-ANA at 1 5 6 9 13 14 | 44.6
2'F-ANA at 1 2 3 4 5 7 9 10 11 14 | 49.1
2'F-ANA at 5 6 8 10 11 12 | 48.8
2'F-ANA at 1 7 10 11 13 15 | 51.9
